Measurements of several laboratories.
Lines come from different studies, so protocols differ. Numbers after ± are the reported error.
GRM2: Metabotropic glutamate receptor 2 (GRM2, Homo sapiens, UniProt Q14416)
Sequence of UniProt Q14416 (whole entry, looked up): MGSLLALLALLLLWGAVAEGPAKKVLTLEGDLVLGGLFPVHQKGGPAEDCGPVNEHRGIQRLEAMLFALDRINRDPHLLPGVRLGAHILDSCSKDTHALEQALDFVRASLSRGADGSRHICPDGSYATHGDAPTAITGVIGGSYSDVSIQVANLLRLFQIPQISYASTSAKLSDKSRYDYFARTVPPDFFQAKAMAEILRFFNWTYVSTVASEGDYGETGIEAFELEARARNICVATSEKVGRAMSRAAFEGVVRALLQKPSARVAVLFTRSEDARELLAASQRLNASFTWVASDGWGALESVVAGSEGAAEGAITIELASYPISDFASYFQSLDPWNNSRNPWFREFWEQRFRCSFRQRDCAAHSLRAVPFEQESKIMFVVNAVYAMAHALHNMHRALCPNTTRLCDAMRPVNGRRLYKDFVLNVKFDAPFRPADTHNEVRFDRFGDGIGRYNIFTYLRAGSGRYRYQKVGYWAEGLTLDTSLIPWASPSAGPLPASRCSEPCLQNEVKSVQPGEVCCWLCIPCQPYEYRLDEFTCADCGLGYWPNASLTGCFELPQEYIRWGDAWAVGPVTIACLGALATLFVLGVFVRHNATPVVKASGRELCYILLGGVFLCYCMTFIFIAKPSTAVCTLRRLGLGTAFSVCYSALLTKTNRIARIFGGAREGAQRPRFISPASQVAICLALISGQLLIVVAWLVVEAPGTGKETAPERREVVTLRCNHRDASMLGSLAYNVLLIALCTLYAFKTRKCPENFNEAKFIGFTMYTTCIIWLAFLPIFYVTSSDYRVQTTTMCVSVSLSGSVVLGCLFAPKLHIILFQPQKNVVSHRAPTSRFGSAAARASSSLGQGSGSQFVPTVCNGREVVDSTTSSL
GPR35: G-protein coupled receptor 35 (GPR35, Homo sapiens, UniProt Q9HC97)
Sequence of UniProt Q9HC97 (whole entry, looked up): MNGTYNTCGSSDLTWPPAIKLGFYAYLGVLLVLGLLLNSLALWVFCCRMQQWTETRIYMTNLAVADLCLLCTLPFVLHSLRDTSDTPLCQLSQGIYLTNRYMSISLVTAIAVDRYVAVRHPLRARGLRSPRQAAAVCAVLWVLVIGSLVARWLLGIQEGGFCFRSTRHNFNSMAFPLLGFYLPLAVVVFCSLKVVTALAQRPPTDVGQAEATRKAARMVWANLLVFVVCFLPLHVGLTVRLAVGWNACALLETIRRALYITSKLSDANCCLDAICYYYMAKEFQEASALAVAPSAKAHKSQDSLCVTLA
CDK2 with cyclin A: Cyclin-dependent kinase 2, with cyclin A (CDK2, Homo sapiens, UniProt P24941)
Sequence of UniProt Q8ILG2 (whole entry, looked up): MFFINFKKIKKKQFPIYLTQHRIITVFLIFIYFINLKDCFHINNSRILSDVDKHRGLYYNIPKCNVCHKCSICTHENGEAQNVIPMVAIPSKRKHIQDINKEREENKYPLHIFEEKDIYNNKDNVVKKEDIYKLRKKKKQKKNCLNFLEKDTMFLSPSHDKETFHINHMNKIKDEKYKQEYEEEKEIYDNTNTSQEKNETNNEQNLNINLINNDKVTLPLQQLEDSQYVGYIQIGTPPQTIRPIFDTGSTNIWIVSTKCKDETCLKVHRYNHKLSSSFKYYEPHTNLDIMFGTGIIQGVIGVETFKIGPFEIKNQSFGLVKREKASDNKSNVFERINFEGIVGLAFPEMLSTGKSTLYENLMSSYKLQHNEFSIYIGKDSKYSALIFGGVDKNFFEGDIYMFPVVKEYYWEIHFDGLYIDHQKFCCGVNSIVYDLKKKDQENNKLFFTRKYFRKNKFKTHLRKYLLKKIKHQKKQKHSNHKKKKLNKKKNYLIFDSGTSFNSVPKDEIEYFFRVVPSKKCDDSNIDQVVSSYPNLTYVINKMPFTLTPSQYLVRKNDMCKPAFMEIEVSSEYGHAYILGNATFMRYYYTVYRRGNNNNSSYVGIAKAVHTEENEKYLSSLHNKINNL

For `CCCCn1ccn2c(-c3ccc(NC4CCOCC4)c(Cl)c3)c(C)nc2c1=O`, the EC50 was 0.295 µM (GRM2; agonist; no glutamate).
`O=C(O)Cc1cc(O)ccc1O` has an EC50 of over 500 µM (GPR35; dynamic mass redistribution, agonist; HT-29; up to 1 h).
`O=C(Nc1nc2ccc(-c3ccccc3)cn2n1)C1CCCCC1` has an IC50 of over 100 µM (CDK2 with cyclin A; enzyme activity, inhibitor).
The EC50 of `FC(F)(F)c1c(-c2ccc(N3CCNCC3)c(Cl)c2)ccn2c(CC3CC3)nnc12` is reported as 12 µM (GRM2; agonist; no glutamate).
With `O=C(O)c1cc(O)ccc1O` the EC50 was 69.6 ± 7.1 µM (GPR35; dynamic mass redistribution, agonist; HT-29; up to 1 h).
With `Cc1cccc(-c2ccc3nc(NC(=O)C4CCOCC4)nn3c2)c1` the IC50 was over 100 µM (CDK2 with cyclin A; enzyme activity, inhibitor).
`Cc1ccc(Oc2ccc(-c3ccn4c(CC5CC5)nnc4c3C(F)(F)F)cc2F)c(C)n1` gave an EC50 of 0.009 µM (GRM2; GTPγS binding, positive allosteric modulator; with: EC20 glutamate).
With `CC(C)C[C@H](NC(=O)[C@@H](NC(=O)[C@H](CCONC(=N)N)NC(=O)OCc1ccccc1)C(C)C)[C@@H](O)CC(=O)NCCc1ccccc1` the IC50 was over 99 µM (Plasmepsin IX (Plasmodium falciparum, UniProt Q8ILG2); enzyme activity, inhibitor).
`Cc1cccc(-c2ccc3nc(NC(=O)C4CCCCC4)nn3c2)c1` has an IC50 of 0.064 µM (crk3 (Leishmania mexicana, UniProt O15851); enzyme activity, inhibitor, radiometric).
With `CC(C)C[C@H](NC(=O)OCc1cccc(Cl)c1)C(=O)N[C@H](C=O)C[C@@H]1CCNC1=O` the IC50 was 1.45 ± 0.18 µM (Replicase polyprotein 1a, 3C-like proteinase (Ferret coronavirus, UniProt A0A172B201); enzyme activity, FRET; NL-2010).

A few entries again:
`Cc1ccc(Oc2ccc(-c3ccn4c(CC5CC5)nnc4c3C(F)(F)F)cc2F)c(C)n1` gave an EC50 of 0.009 µM (GRM2; GTPγS binding, positive allosteric modulator; with: EC20 glutamate).
